# Assay results pooled from the literature.
# Every numbered part comes from another study and shows a few of its results, in no order.

# Series 1
# Target: Histone acetyltransferase KAT6A, winged helix 2, GST fusion (KAT6A, Homo sapiens, UniProt Q92794, residues 85-181)
# Technique: protein binding microarray
# Form: double-stranded DNA, one strand shown
# Sample: in vitro
# Concentration: not given
# Setting: 8-mer, flanks averaged, mean of 2 arrays, mostly near background
# Reference: not given
# Direction: higher = stronger binding
# Residues (chain): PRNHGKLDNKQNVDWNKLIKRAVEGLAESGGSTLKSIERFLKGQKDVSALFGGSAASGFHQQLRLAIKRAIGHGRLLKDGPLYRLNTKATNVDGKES
Oligonucleotide,E-score
ATACCAGA,-0.0725
CGCACACG,0.0483
CTATTCTC,-0.0797
AAGGCTCG,-0.0333
AATGGGGT,-0.251
CACTATGA,-0.0822
GCTGTAGA,0.0914
CGGCATCC,0.16
ACACGGGC,0.0547
AGATCCGA,0.0695
ACGTCGAT,-0.0818
AAGGGCTA,-0.0445
GATAGCTA,-0.0283
AGTCATAA,-0.187
GAATACTA,0.0619
CTTCGACA,-0.0208
CATTGCCA,0.0857
AACATCAG,0.152
AACACCTT,-0.0485
ACTAGCTA,0.092
AGAAGGTA,0.00137

# Series 2
# Target: PABPC1L2, full length, GST fusion (mouse, UniProt A0ABA7IW68)
# Technique: RNAcompete
# Form: RNA
# Sample: in vitro
# Concentration: 20 nM
# Setting: 7-mer, probes averaged, single round
# Reference: mean of 7-mers
# Direction: higher = stronger binding
# Target sequence (chain): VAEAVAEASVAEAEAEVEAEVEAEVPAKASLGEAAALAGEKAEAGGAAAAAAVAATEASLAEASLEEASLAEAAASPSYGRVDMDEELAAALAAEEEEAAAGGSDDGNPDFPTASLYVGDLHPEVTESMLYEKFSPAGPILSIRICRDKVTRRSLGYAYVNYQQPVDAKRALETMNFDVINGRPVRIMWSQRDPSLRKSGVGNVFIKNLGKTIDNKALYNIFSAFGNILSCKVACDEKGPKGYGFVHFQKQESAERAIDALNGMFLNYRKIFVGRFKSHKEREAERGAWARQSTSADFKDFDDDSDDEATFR
Oligonucleotide,7-mer Z-score
CGUGUCC,-0.403
AUUCUAU,-0.296
GUUCCUC,-0.4
AGGGCGC,0.265
GGACGGG,0.336
CAGAGCA,0.128
GCACAAG,-0.0609
UAAGCGU,-0.122
UCCACGC,-0.219
UGAAUUA,-0.168
UAUAUGC,-0.133
UAGAUCC,-0.0337
GUUAUCU,-0.204
AUCUCCC,-0.358
ACUAGCG,-0.119
AUGGUGU,-0.208
UUUCUCU,-0.38
ACGCCUC,-0.347
UUCUCUG,-0.277
CUCAUUA,-0.139
CCCCAUG,-0.358
AUACUAC,-0.215
GCCCCUC,-0.354
UGGUGAG,-0.139
AUCAGGA,0.0768

# Series 3
# Target: Max dimerization protein 1, bHLH-zipper, MAX partner unstated (MXD1, Homo sapiens, UniProt Q05195, residues 56-136)
# Technique: protein-binding microarray
# Form: double-stranded DNA, one strand shown
# Sample: in vitro
# Concentration: not given
# Setting: k-mer, scored over probes, only values ≥0.25
# Direction: higher = stronger binding
# Construct (chain): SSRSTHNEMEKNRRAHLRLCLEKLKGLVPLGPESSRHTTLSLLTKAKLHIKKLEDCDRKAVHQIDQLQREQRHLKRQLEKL
Oligonucleotide,E-score
CAGGCATG,0.393
GCGTGGCA,0.343
CACGCCCA,0.31
CCCCATAC,0.266
CACGCTTA,0.377
AACCATGT,0.281
ACGGCGTG,0.376
AGGTGGCG,0.288
CATGCAGG,0.305
AACATGAG,0.341
ACCACACG,0.382
CGCGTACA,0.274
GCCCCCCC,0.254
ACACCTGT,0.296
CCACCAGA,0.28
AGGGGGGG,0.25
ACTCGTGG,0.421
CACCGTGG,0.26
CAATGTGG,0.3
ACAAGCAT,0.255
ACATGCGC,0.433
AGCACGCC,0.345
ATCCACGC,0.306
ACCACCTG,0.265
CAAGCGTG,0.396

# Series 4
# Target: RING finger protein unkempt homolog, zinc fingers 1-6, GST-SBP tag (UNK, Homo sapiens, UniProt Q9C0B0, residues 30-357)
# Technique: RNA Bind-n-Seq
# Form: RNA
# Sample: in vitro
# Concentration: not given
# Setting: RNA with constant flanks, human and mouse sites, ends assumed
# Reference: input RNA pool
# Direction: higher = stronger binding
# All sequences stand within: GGGAGUUCUACAGUCCGACGAUC … CAACAGAGGAUUGAGCAUCA
# Target sequence (chain): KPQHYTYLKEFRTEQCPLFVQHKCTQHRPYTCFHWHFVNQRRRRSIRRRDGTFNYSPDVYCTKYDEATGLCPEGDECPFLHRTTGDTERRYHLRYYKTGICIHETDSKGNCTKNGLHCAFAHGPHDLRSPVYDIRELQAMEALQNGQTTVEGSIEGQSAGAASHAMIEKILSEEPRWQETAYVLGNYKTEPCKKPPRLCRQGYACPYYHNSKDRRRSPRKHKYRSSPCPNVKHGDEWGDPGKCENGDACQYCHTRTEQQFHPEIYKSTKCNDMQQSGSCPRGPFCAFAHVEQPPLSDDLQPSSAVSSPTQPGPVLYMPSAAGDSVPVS
Oligonucleotide,bound/input enrichment [ratio]
AAGGAAACACAGAUGGUGAAGAUUAAAGAGGAACCCAUGGAGGUUGACAUCCAGGACUCCCAUGUCUCGAUAUCACCCAGCCGGAAUGUUGGCUACAGCACUUUAAUCGGGCGAGAGAAA,0.131
UGGAACACAGUUCUGUAAAAUUUUCAUAAGAUUCCUUGGCAAUAACAUACGCUUGUGAUGGACCCUAGAAAUACUGCUAUGUUAGGAUUGGGUUCUGAUUCCGAAGGUUUUUCAAGAAAG,0.374
GACUCUGAUAUGGAAGAGGAGGCAGAUGAUGGCUGUAAGGUGGCACCUGAUUUAAUCAGUCAGCAAGAUACCUGUGUAGAUUCUACUUCAUCCCUGAGAGAGAACAAACAACCAGAAGUU,0.112
UCAAGAAGCAUCGUGUCUGGCGUUGUGGGGAUGAACUUUUUGUUUUGUUUCUUCCUUUUUUAGUUCUUCAAAGAUAGGGAGGGAAGGGGGAACAUGAGCCUUUGUUGCUAUCAAUCCAAG,0.117
CCUCGGGCUGCCACUGUGGUUGCCCGGGGCCCUUUGAAGUGCGUUAAGUUGGACCGGCCUCGGUUUGAACGCGUCCUUGGCCCGUGCUCAGACAUCCUCAAGCGGAACAUCCAGCAGUAC,0.0882
GUUAUAGGAGUUUACAAAAAAAUACCAACAUGUCAUCACCCACGCCAUUUAAGAUGAGAUUAGUUCAUUUGGACCUUAAAGGAGCGCCGCCAAAGGUUUCAUAUCUCUCUGAGGUUUUUC,2.88
UAUAGAGCCACCAUGAUUCUUACAGUUGGUGGUAAGGCCUUUGGAAUGUUUGAAGGAACAGCAUAUGCCAUAUAUGAGCUGGCUGUGGCUUCAUUUCCCAAGAAGCAGGAGUGACUUCAG,0.187
UAGUUUAUUCAAUUACAGCUCAGUCUACGUUUAAUGAUUUACAAGACUUGAGAGAACAGAUUUUACGGGUUAAAGACACAGAAGAUGUUCCAAUGAUUUUGGUUGGCAAUAAAUGUGACU,6.45
ACCUUCCUUGUAUUUUCCAAGGCUGAACUUGGUGCUCUUCCUGAUGAUUUCAUUGACAGUUUAGAAAAGACAGAUGAUGACAAGUAUAAAAUUACCUUAAAAUAUCCACACUAUUUCCCU,1.04
AAUAUACAUGGAACUUUGGUCUUUGGAACAAGUAGUAGUUUGUCUGGCAUAAUGGCAAACUUAGUUUUCCGAAACAGUUUCAAGGUUAAAUAUGAAGCUUUGAAGACCUAUGCAUCCCUG,0.214
CUGUUGGGGUGGGUAUAAAAGAUGGGGUCUGUAAAAUCUUUCUUUCUUAGAAAUUUAUUUCCUAGUUCUGUAGAAAUGGUUGUAUUAGAUGUUCUCUAUCAUUUAAUAAUAUACUUGUGG,2.69

# Series 5
# Target: RNA binding protein fox-1 homolog 2, RRM domain, GST-SBP tag (RBFOX2, Homo sapiens, UniProt O43251-10, residues 100-194)
# Technique: RNA Bind-n-Seq
# Form: RNA
# Sample: in vitro
# Concentration: 365 nM
# Setting: natural RNA segment, single round, ends assumed
# Reference: no-protein control
# Direction: higher = stronger binding
# All sequences stand within: GGGAGUUCUACAGUCCGACGAUC … UGGAAUUCUCGGGUGCCAA
# Construct (chain): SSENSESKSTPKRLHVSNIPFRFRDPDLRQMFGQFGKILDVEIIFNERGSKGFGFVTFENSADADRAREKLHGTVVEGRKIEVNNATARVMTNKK
Oligonucleotide,RBNS enrichment (R)
GCUCUUACUACUUAGUCAACUAUCCUCAGCUGUAUUCGUCUUCAAUUGUCAGUAUGGCACAGAUCACUGUAUUAAAAUGCUCUUUCGUCUUCAUAUUUACCUUCUGAGGU,0.327
ACCUUUCCUGAAGUAUGCACCCUAGAAAAGAAUUGUGUGCUAAUGCUUGUCAGAGCUGUGGCAGUACUUAACUCUGAGGAUGUAGGAGACGUGACUGGCUUUUAGAGUGA,0.525
CUAUGUAAUGUACAGAUACUAGCAUUGCGCAUAUAGUCUGCUUUCUGUUCCUCCAGAAUUUGAGUCCUGUUAAUGUAGUGGCAAAGAAGAAAGUUUCUUUUUCUUUUGUG,0.931
GUAAGCAGUCAGUCGUGGCUCAGAACUUAACCCCAUAGCUCAGAGGAAUGCUUUUAGCAGAAAACAGGAAAGAAAAUAUCCCUUAAAAAUUUUUUUUGAAUGUGUGGAAG,0.435
ACAUUGUUUUGGACACUGGAAUAAUAUGAUUUAUUUUCACCUGUAAAAAUGACUUCAUUGUACUUGAACACCUUUGCAUUUCUCCAUUUGUGCCAUUUACAAGUGGAAAU,0.379
CUGGUCUGUUCAAUCCUGCCCUCUUUGGUGCUAGAUCCAGUUGUGCCUCAGAGCAGAAGAAACAAACCUGCUGUCUUGUUGGCCCAGUGUUUCAGUUUUGAAGUGUGUAC,0.699
ACUUUGUAUUGCCCACUCAUUUGUAUAAGUGCGCUUCGGUACAGCACGGGUCCUGCUCCCGCGAUGUGGAAGUGUCACACGGCACCUGUACAAAAAGACUGGCUAACCCC,0.384
UAUAUUUAUAUUCUUAGAUAGUUUGUUCCACAAUUUUUCAUUUCAUGCUUCCAUAUAUAUUACCCUGAACUUUCUAUCACCACAGAUAAAGAUUUUGUUUUGCCCUGCAA,1.21
GCAGAUGCCUGCUCGCUCUGUCACCUGUGCCUCUCAGAACACCAGCAGUUAACCUUCAAGACAUUCCACUUGCUAAAAUUAUUUAUUUUGUAAGGAGAGGUUUUAAUUAA,0.787
CAGACCACUGAACAAGUACACGUAUAGGCCUCAAGUAUGCUAUUCCCGUGUGGCUUUAUCCUGUCCCUGCUGUUGCGAGGAAGCUGUGAGGGUACCUUCAGAUGAGAUAC,0.742
GACCUCGUGAUCCGCCCACCUCGGCCUCCCAAAGUGCUGGGAUUACAGGCGUGAGCCACCACGCCCAGCCAGGGUUUUCUUUUUUAAUCCUUUCCAGAAACAGAAAGAGC,0.227
UGGAAGGGACACCCCAGCCAGGGACGGAAUGCCUGGUCUUGAGCAACCUCCCACUGCUGGAGUGCGAGUGGGAAUCAGAGCCUCCUGAAGCCUCUGGGAACUCCUCCUGU,0.453

# For quick reference, copied from above (series 3):
Oligonucleotide,E-score
CACGCCCA,0.31
CCCCATAC,0.266
CACGCTTA,0.377
AACCATGT,0.281
ACGGCGTG,0.376
AGGTGGCG,0.288
CATGCAGG,0.305
AACATGAG,0.341
ACCACACG,0.382
